Results gathered from unrelated publications.
Several values in a cell are separate wells, animals, samples, runs or records. ± marks the error that the study gave.

SMILES | target or system | test | system | setting | scale | measurement | value
N#C[C@@H]1CCCN1C(=O)CNC(=O)c1ccnc2ccc(OCCCN3CCN(C(=O)CCc4ccc(O)c(CN5CCN6CC(=O)[O][Al-]([18F])([O]C(=O)C5)[O]c5ccc(CCC(=O)N7CCN(CCCOc8ccc9nccc(C(=O)NCC(=O)N%10CCC[C@H]%10C#N)c9c8)CC7)cc5C6)c4)CC3)cc12 (some centres unmarked) | – | – | BALB/c nude mice, U-87 MG xenograft, lung | 1 h, blocking, together with: DOTA-FAPI-04 40 nmol/mouse co-injected | – | tissue uptake | 6.49 ± 1.06 %ID/g
CC[C@H](C)[C@H](NC(=O)C[C@H](NC(=O)CN1CCN2CCN(CC1)CC(=O)[O][Al]([18F])[O]C(=O)C2)C(=O)O)C(=O)N[C@H]1CCc2cccc3c2N(C1=O)[C@H](C(=O)NCc1cn[nH]n1)C3 | – | – | C57BL/6J mice, MC-38 tumour, anti-PD-1 treated, brain | 0.5 h | – | tissue uptake | 0.08 ± 0.05 %ID/g
Cc1nc(N)nc2c1C(=O)N[C@@H](c1ccc(F)cc1-c1cccc(OCC[18F])n1)C2 | – | ex vivo biodistribution | C57BL/6 mice, urine | intravenous, 1 MBq, 30 min | – | tissue uptake | 0.46 ± 0.08 %ID
CCCC[C@H](NC(=O)CNC(=O)CNC(=O)[C@H](CCCCNC(=O)[C@H](CC(=O)O)NC(=O)C(C)c1ccc(CC(C)C)cc1)NC(=O)CN1CCN(CC(=O)O)CCN(CC(=O)O)CCN(CC(=O)O)CC1)C(=O)N[C@H]1CC(=O)NCCCC[C@@H](C(N)=O)NC(=O)[C@H](Cc2c[nH]c3ccccc23)NC(=O)[C@H](CCCNC(=N)N)NC(=O)[C@@H](Cc2ccccc2)NC(=O)[C@H](Cc2c[nH]cn2)NC1=O (some centres unmarked) [lutetium-177 labelled] | – | – | C57 mice, tumour-bearing, liver | 2 h | – | tissue uptake | 2.56 ± 0.27 %ID/g
CC(C)c1noc(C2CCN(c3ncnc(Nc4ccc(OCC[18F])cc4)c3[N+](=O)[O-])CC2)n1 | – | ex vivo biodistribution after PET | C57BL/J male mice, pancreas | 60 min | – | tissue uptake | 1.79 ± 0.17 %ID/g
COc1ccc(Nc2nc(Nc3ccc(OCCOCC[18F])cc3)ncc2Br)cc1 | – | – | ICR mice, S180 tumour-bearing, lung | intravenous, 370 kBq, 120 min | – | tissue uptake | 1.94 ± 0.32 %ID/g
CCCC[C@H](NC(=O)CCCCCCCNC(=O)CN1CCN(CC(=O)O)CCN(CC(=O)O)CC1)C(=O)N[C@H]1CC(=O)NCCCC[C@@H](C(N)=O)NC(=O)[C@H](Cc2c[nH]c3ccccc23)NC(=O)[C@H](CCCNC(=N)N)NC(=O)[C@@H](Cc2ccccc2)NC(=O)[C@H](Cc2c[nH]cn2)NC1=O [fluorine-18 labelled] | – | – | C57 mice B16-F10 melanoma, tumor | intravenous, 0.37 MBq, 0.5 h | – | tissue uptake | 15.5 ± 1.51 %ID/g
O=C(O)CCCOc1ccc([18F])cc1-c1cc(-c2ccccc2C(F)(F)F)n(-c2ccccc2)n1 | – | – | mice, small intestine | intravenous, 5 min | – | tissue uptake | 1.36 ± 0.04 %ID/g
Cc1cc(C)n(CCN(CCN)CCCCCCNC(=O)[C@@H](N)Cc2c[nH]c3ccccc23)n1.[99Tc+].[C-]#[O+].[C-]#[O+].[C-]#[O+] | – | – | BALB/c nude mice, A549 xenograft, muscle | intravenous, 15 min | – | tissue uptake | 0.55 ± 0.06 %IA/g
CC(=O)N([O-])CCCCCNC(=O)CCC(=O)N([O-])CCCCCNC(=O)CCC(=O)N([O-])CCCCCN.[89Zr+4] | – | gamma counting | healthy Balb/c mice, muscle | intravenous, 24 h, 89Zr-labelled complex | – | tissue uptake | 0.01 %ID/g
O=C(NCC1OC2CCC=CCCC2O1)c1ccc([18F])nc1 (centres unmarked) | – | – | healthy female BALB/c nude mice, muscle | intravenous, 7.4 MBq per mouse, 2 min | – | tissue uptake | 1.9 ± 0.3 %ID/g
Cc1c(Cc2ccccc2)c(NCCN(C)C)n2c(nc3ccccc32)c1C#N | Trypanosoma cruzi | reporter mRNA translation, inhibitor, refers to: capped polyadenylated Renilla luciferase mRNA | cell-free extract | concentration not given | reference: control RNA | relative translation | 114%
COc1ccc2c(c1)C(C)(C)C(/C=C/C1=C(Oc3ccc(C(=O)NCCCCOc4cc(CN(Cc5ccccn5)Cc5ccccn5)cc(CN(Cc5ccccn5)Cc5ccccn5)c4)cc3)C(=C/C=C3/N(CCCCS(=O)(=O)[O-])c4ccc(OC)cc4C3(C)C)CCC1)=[N+]2CCCCS(=O)(=O)[O-].O=[N+]([O-])[O-].O=[N+]([O-])[O-].[99Tc+].[C-]#[O+].[C-]#[O+].[C-]#[O+].[Zn+2] | – | – | healthy BALB/c mice, bone | 12 h | – | tissue uptake | 0.76 %ID/g and 0.63 %ID/g and 0.89 %ID/g and 0.84 %ID/g
CC(C)C[C@H](NC(=O)[C@@H](CCCCNC(=O)[C@@H](Cc1ccccc1)NC(=O)CCCCCCCNC(=O)CN1CCN(CC(=O)O)CCN(CC(=O)O)CCN(CC(=O)O)CC1)NC(=O)[C@H](Cc1ccc(O)cc1)NC(=O)[C@H](CO)NC(=O)[C@H](Cc1c[nH]c2ccccc12)NC(=O)[C@H](Cc1c[nH]cn1)NC(=O)[C@@H]1CCC(=O)N1)C(=O)N[C@@H](CCCNC(=N)N)C(=O)N1CCC[C@H]1C(=O)NCC(N)=O [indium-111 labelled] | – | – | male athymic nude mice, DU-145 xenograft, kidney | intravenous, 1 h, together with: 10 µg unlabelled blocking peptide | – | tissue uptake | 9.63 ± 1.47 %ID/g
N[C@H](CSC(F)(F)[18F])C(=O)O | – | – | Kunming mice, turpentine inflammation, inflamed muscle | intravenous, 0.74 MBq, 60 min | – | tissue uptake | 1.63 ± 0.11 %ID/g
Cc1cc(C)n(CCN(CCN)CCCCCCNC(=O)[C@@H](N)Cc2c[nH]cn2)n1.[99Tc+].[C-]#[O+].[C-]#[O+].[C-]#[O+] | – | – | BALB/c nude mice, A549 xenograft, stomach | intravenous, 15 min | – | tissue uptake | 0.79 ± 0.25 %IA/g
CN(C)CCCCCN(C)Cc1cc2ccccc2o1.Cl | Trypanosoma cruzi | reporter mRNA translation, inhibitor, refers to: capped polyadenylated Renilla luciferase mRNA | cell-free extract | concentration not given | reference: control RNA | relative translation | 112%
CCCC[C@H](NC(=O)CNC(=O)CNC(=O)[C@H](CCCCNC(=O)[C@H](CCN)NC(=O)C(C)c1ccc(CC(C)C)cc1)NC(=O)CN1CCN(CC(=O)O)CCN(CC(=O)O)CCN(CC(=O)O)CC1)C(=O)N[C@H]1CC(=O)NCCCC[C@@H](C(N)=O)NC(=O)[C@H](Cc2c[nH]c3ccccc23)NC(=O)[C@H](CCCNC(=N)N)NC(=O)[C@@H](Cc2ccccc2)NC(=O)[C@H](Cc2c[nH]cn2)NC1=O (some centres unmarked) [lutetium-177 labelled] | – | – | C57 mice, tumour-bearing, spleen | 2 h | – | tissue uptake | 3.34 ± 1.03 %ID/g
CN(O)C(=O)CCC(=O)NCCCN(CCCCN(CCCNC(=O)CCC(=O)N(C)O)C(=O)CCC(=O)N(C)O)C(=O)CCC(=O)N(C)O.[89Zr] | – | gamma counting | healthy Balb/c mice, plasma | intravenous, 1 h, 89Zr-labelled complex | – | tissue uptake | 1.24 ± 0.23 %ID/g
N#C[C@@H]1CCCN1C(=O)CNC(=O)c1ccnc2ccc(OCCCN3CCN(C(=O)CCc4ccc5c(c4)CN4CCN6CC(=O)[O][68Ga-]([O]C(=O)C4)([O]5)[O]c4ccc(CCC(=O)N5CCN(CCCOc7ccc8nccc(C(=O)NCC(=O)N9CCC[C@H]9C#N)c8c7)CC5)cc4C6)CC3)cc12 | – | – | BALB/c nude mice, U-87 MG xenograft, kidney | 1 h, blocking, together with: DOTA-FAPI-04 40 nmol/mouse co-injected | – | tissue uptake | 4.45 ± 1.09 %ID/g
COc1ccc(Nc2nc(Nc3ccc(OCCOCCOCC[18F])cc3)ncc2Br)cc1 | – | – | ICR mice, S180 tumour, intestine | intravenous, 370 kBq, 120 min | – | tissue uptake | 5.72 ± 0.13 %ID
C[N+](C)(CCOCCOCCOCCOCCOCCOCCOCCNC(=S)Nc1ccc(CC2CN(CC(=O)[O-])CCN(CC(=O)[O-])CCN2CC(=O)[O-])cc1)C[c-]1cccc1.[64Cu+2].[Fe+2].c1cc[cH-]c1 (centres unmarked) | – | refers to: kidney | nude mice, BxPC-3 tumour | 8 h, pretargeting, 72 h lag | – | tissue uptake | 0.2 %ID/g
O=C(NCC1OC2CCC=CCCC2O1)c1ccc(COCCOCCOCC[18F])cc1 (centres unmarked) | – | – | healthy female BALB/c nude mice, lungs | intravenous, 7.4 MBq per mouse, 120 min | – | tissue uptake | 1.5 ± 0.1 %ID/g
